Measurements from different studies.
Each line is one published result; not all experiments were run side by side. “And” joins repeats or separate records; there may be more than shown. Numbers after ± are the reported error.
Gria1: Glutamate receptor 1 (Gria1, Rattus norvegicus, UniProt P19490)
TDP1: Tyrosyl-DNA phosphodiesterase 1 (TDP1, Homo sapiens, UniProt Q9NUW8)
CHRM5: Muscarinic acetylcholine receptor M5 (CHRM5, Homo sapiens, UniProt P08912)
CASP6: Caspase-6 (CASP6, Homo sapiens, UniProt P55212)
Uncharacterized protein: Uncharacterized protein (Trypanosoma brucei brucei, UniProt Q386Q8)
T1: RNA, abasic bulge mismatch; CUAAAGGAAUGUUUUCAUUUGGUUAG

Structure (SMILES) | tested on | test | system | setting | how to read | quantity | result
Cc1ncsc1-c1ccc(C(C)NC(=O)C2CC(O)CN2C(=O)C(NC(=O)CCCCCCCCCCN2CCCC(Nc3ncc(Cl)c(Nc4ccccc4S(=O)(=O)C(C)C)n3)C2)C(C)(C)C)cc1 (stereo not shown) | 22Rv1 | RNA-seq, item: SLC5A3 mRNA | – | concentration not given | reference: DMSO | log2 fold change | -1.48
COC(=O)Cc1cc2c(cc1C(=O)c1ccc(Cl)cc1Cl)OCO2 | Gria1 | glutamate-evoked current, whole-cell patch clamp | HEK-293T | concentration not given, weighted tau, 1 ms pulse, added: glutamate | – | deactivation time constant | 3.4 ± 0.2 ms
CCCCCCCCCCCCC/C=C/C=O | Perilipin-3 (PLIN3, Homo sapiens, UniProt O60664) | competitive isoTOP-ABPP | Ramos soluble proteome | 100 µM, 60 min, added: iodoacetamide probe | reference: DMSO over compound-treated, higher = stronger cysteine blockade | isoTOP-ABPP competition ratio | 1.3
COc1ccnc(C)c1C | Nicotinamide N-methyltransferase, SAM-bound (NNMT, Homo sapiens, UniProt P40261) | differential scanning fluorimetry | – | 1 mM, added: 100 µM SAM | – | ΔTm | 2.1 °C
COC(=O)Cc1cc2c(cc1C(=O)c1ccccc1)OCO2 | Gria1 | glutamate-evoked current, whole-cell patch clamp | HEK-293T | concentration not given, pH 7.4, holding potential -60 mV, added: 10 mM glutamate | – | current amplitude | 709 ± 62 pA
O=[N+]([O-])c1cc(Br)cc([N+](=O)[O-])c1NS(=O)(=O)c1ccc(Br)cc1 | HAB1 (Arabidopsis thaliana, UniProt Q9CAJ0) | inhibitor | – | 50 µM, no PYL receptor | higher = more activity | phosphatase activity | 1.07 a.u. and 1.08 a.u. and 0.985 a.u.
CCN1CCN(Cc2ccc(C(=O)Nc3ccc(C)c(NCc4cnc5[nH]ccc5c4OC)c3)cc2C(F)(F)F)CC1 | Tyrosine-protein kinase ABL1, phosphorylated (ABL1, Homo sapiens, UniProt P00519, E255K) | binding, competition with immobilised ligand | – | 1 µM | – | remaining binding | 1.3%
COC(=O)Cc1cc2c(cc1C(=O)c1ccccc1I)OCO2 | Gria1 | glutamate-evoked current, whole-cell patch clamp | HEK-293T | concentration not given, weighted tau, 500 ms pulse, added: glutamate | – | desensitization time constant | 2.3 ± 0.1 ms
CCN(CC)C(CO)c1cccc2c(C)c(C)oc12 (stereo not shown) | LPAR1 (Homo sapiens, UniProt Q92633, W210A) | G-protein dissociation, agonist, NanoBiT | HEK-293T | 10 µM, W210A mutant | reference: baseline luminescence | fold change | 0.962 and 0.802 and 0.75 and 0.939 and 0.699 and 1.02
O=C(O)c1ccc(Nc2c(-c3ccccc3)nc3ccc(CON=Cc4ccccc4-c4ccc(F)cc4)cn23)cc1 | TDP1 | enzyme activity, inhibitor | – | 100 µM, unpurified compound | – | inhibition | 48.3%
Fc1ccc(Nc2nc(NC3CCCCC3)c3cc(Br)ccc3n2)cc1F | ADRB2 (Homo sapiens, UniProt P07550, N148A) | β-arrestin2 recruitment, antagonist, BRET | – | mutant N148A | reference: isoprenaline maximal response | maximal inhibition | 2%
CCCCCCOc1ccc(C(=O)OCCN2CC=CCC2)cc1 | CHRM5 | – | membranes | 1 µM, 15 h, no carbachol | reference: control | basal binding | 1.18 ± 0.05 fold
N[C@@H](Cc1c[nH]c2ccc(OCc3ccccc3)cc12)C(=O)O | SLC7A5 (Homo sapiens, UniProt Q01650) | [3H]-L-leucine uptake | HT-29 | – | – | Hill slope | -0.672
CC(=O)N[C@@H](Cc1ccc(C)cc1)C(=O)N[C@@H](CCCC(=O)O)C(=O)N[C@H](C(=O)N[C@@H](CC(=O)O)C(=O)COC(=O)c1c(C)cccc1C)C(C)(C)C | CASP6 | enzyme activity, inhibitor | – | – | – | kinact/KI | 5300 M⁻¹ s⁻¹
Cc1ccc2c(c1Br)C(O)(CC(=O)c1ccc(F)cc1)C(=O)N2 (stereo not shown) | Uncharacterized protein | inhibitor, coupled colorimetric | Trypanosoma brucei | – | – | Hill slope | -0.43
CON(C)C(=O)CC(NS(=O)(=O)c1ccc(C)cc1)c1ccccc1 (stereo not shown) | glpG (Escherichia coli, UniProt P09391) | enzyme activity, inhibitor, gel-based chimeric protein substrate | – | – | – | IC50 | inactive
O=C(O)c1ccc(Nc2c(-c3ccc(CON=Cc4ccc(-n5cncn5)c(F)c4)cc3)nc3cc(-c4ccccc4)ccn23)cc1 (mixture of isomers) | TDP1 | enzyme activity, inhibitor | – | 100 µM, unpurified compound | – | inhibition | 82.4%
N#CN1CC[C@H](C(=O)Nc2nc3c(s2)CN(C(=O)CN=[N+]=[N-])CC3)C1 | Alpha-enolase (ENO1, Homo sapiens, UniProt P06733) | click pull-down LC-MS/MS | HEK293T cells | – | – | total spectral count | 8
C=C(NC(=O)c1csc(-c2nc3c(cc2O)-c2nc(cs2)C(=O)NC(C(C)O)C(=O)NC(=C(C)OC)c2nc(cs2)C(=O)NC2c4nc(cs4)C(=O)NC(COC(=O)c4c5c6c(cccc6n4O)COC(=O)C(OC4CC(C)(O)C(N(C)C)C(C)O4)C2OC5)c2nc-3cs2)n1)C(N)=O (stereo not shown) | – | – | Sprague-Dawley rat, male, plasma | intravenous infusion, 18 mg/kg single dose | – | AUC(0-last) | 5160 ng·h/mL
CN(Cc1cc(C2CC2)on1)C(=O)c1cccc(-c2ccc3c(c2)CCO3)c1 | ACS1 (Saccharomyces cerevisiae, UniProt Q01574) | enzyme activity, inhibitor, coupled pyrophosphate | – | 1 µM | higher is more activity | reaction rate | 0.02 a.u.

Structure (SMILES) | tested on | test | system | setting | how to read | quantity | result
CN(C)CCCSC(=S)N1CCN(C(=O)/C=C/c2coc3ccccc3c2=O)CC1 | Nucleoprotein (N, Tomato spotted wilt virus, UniProt P25999) | binding, microscale thermophoresis | – | 31.25 µM | dose series | normalised MST response | 0.261
O=C(O)c1ccc(Nc2c(-c3ccccc3)nc3ccc(CON=Cc4ccc(OCc5cnc(Cl)s5)cc4)cn23)cc1 | TDP1 | enzyme activity, inhibitor | – | 100 µM, unpurified compound | – | inhibition | 77.8%
Nc1ncc(-c2cc(-c3cnn(CC(F)(F)F)c3)ncc2F)nc1C(=O)NC1CNCC(F)C1 (stereo not shown) | MYO3A | KINOMEscan | – | 1 µM | reference: DMSO control | remaining binding | 100%
O=C(O)c1ccc(Nc2c(-c3ccccc3)nc3ccc(CON=Cc4cc(-c5ccc(F)cc5)on4)cn23)cc1 | TDP1 | enzyme activity, inhibitor | – | 100 µM, unpurified compound | – | inhibition | -5.3%
NC(=O)c1cccc(CN(Cc2ccc(Cl)c(Cl)c2)C(=O)NC(CN2CCCCC2)c2ccccc2)c1 (stereo not shown) | OPRK1 (Homo sapiens, UniProt P41145) | beta-arrestin recruitment | – | – | – | log(tau/KA) | 4.07
CC(=O)N[C@@H](CC(=O)O)C(=O)N[C@@H](CC(C)C)C(=O)N[C@@H](C)C(=O)N[C@@H](CC(=O)O)C(=O)COC(=O)c1c(C)cccc1C | CASP6 | enzyme activity, inhibitor | – | – | – | kinact/KI | 1400 M⁻¹ s⁻¹
CNS(=O)(=O)Nc1nccc(Cc2c(C)c3ccc(Oc4ncccc4F)cc3oc2=O)c1F | HT1197 | cell viability | – | 7 days | – | IC50 | > 1000 nM
CC(C)C[C@@H]1NC(=O)[C@H](Cc2ccccc2)NC(=O)[C@H](CO)NC(=O)[C@H](Cc2ccccc2)NC(=O)CSC[C@@H](C(=O)N(C)[C@@H](Cc2ccccc2)C(N)=O)NC(=O)[C@H](Cc2c[nH]c3ccccc23)NC(=O)[C@H](Cc2c[nH]cn2)NC(=O)[C@H](Cc2ccc(O)cc2)NC1=O | Bromodomain-containing protein 4, BD1 (BRD4, Homo sapiens, UniProt O60885) | thermal stability, DSF | – | 200 µM | – | ΔTm | 0.66 °C
CC[C@H](C)[C@H](NC(=O)[C@H](CCCC(=O)O)NC(=O)[C@H](CC(=O)O)NC(C)=O)C(=O)N[C@@H](CC(=O)O)C(=O)COC(=O)c1c(C)cccc1C | CASP6 | enzyme activity, inhibitor | – | – | – | kinact/KI | 160000 M⁻¹ s⁻¹
O=C1c2sc(-c3ccc(N4CCC(CO)CC4)nc3F)nc2CCN1c1cccnc1 | TAR DNA-binding protein 43, aggregated (TARDBP, Homo sapiens, UniProt Q13148) | radioligand binding | human, FTLD-TDP type A insoluble extract | 3.53 nM | – | specific binding | 1.36 nM and 1.59 nM and 1.02 nM and 1.3 nM
Cc1ccc2ccc(NC(=O)OCCCN(CCCOC(=O)Nc3ccc4ccc(C)nc4n3)Cc3ccc(/N=N\c4ccc(CN(CCCOC(=O)Nc5ccc6ccc(C)nc6n5)CCCOC(=O)Nc5ccc6ccc(C)nc6n5)cc4)cc3)nc2n1 | T1, RNA, abasic bulge mismatch | CD titration | – | – | – | binding | binds
CCCCCC(O)/C=C/C=O (stereo not shown) | Actin-related protein 2 (Homo sapiens, UniProt P61160) | acylphosphate-ATP probe SILAC-ABPP, item: ACTR2 | ZAK-transfected HEK293T | 100 µM, added: acylphosphate-ATP probe | reference: DMSO over compound-treated | probe labelling ratio | 0.63
CC(C)Oc1cc(Cl)ccc1CNc1cc(-c2ccccc2)nc2ncnn12 | GPR3 (Homo sapiens, UniProt P46089, I200W) | cAMP GloSensor | human cells | 300 nM | higher is more cAMP | cAMP luminescence | 52500 a.u. and 42300 a.u. and 37800 a.u. and 35300 a.u.
CCCCCCOc1ccc(C(=O)OCC[N+]2(C)CC=CCC2)cc1 (stereo not shown) | CHRM5 | – | membranes | 100 µM, 15 h, no carbachol | reference: control | basal binding | 1.1 ± 0.04 fold
CN1CCCNC(=O)c2cccc(c2)C(=O)NCCCN(C)CCCNc2cccc3c2C(=O)c2cccc(c2C3=O)NCCC1 | SAS | RNA-Seq, item: SLC12A8 mRNA | – | 1 µM, 6 h | reference: untreated cells | log2 fold change | -1.06
COc1ccccc1N1Cc2ccc(OC)c(OC)c2C1=O | Uncharacterized protein | inhibitor, coupled colorimetric | Trypanosoma brucei | – | – | Hill slope | -16.4
O=C(Cc1ccc(OCc2ccccc2)cc1)NC1(C(=O)O)CCN(C(=O)c2ccc(-c3cccc(Cl)c3)cc2)CC1 | Tribbles homolog 2 (TRIB2, Homo sapiens, UniProt Q92519) | enzyme activity, inhibitor | – | 10 µM | – | activity vs control | 95%
CCCCCC=CC=C1C(=O)C=CC1CC=CCCCC(=O)O (stereo not shown) | CPSF3 (Homo sapiens, UniProt Q9UKF6) | competitive isoTOP-ABPP | Ramos soluble proteome | 100 µM, added: iodoacetamide probe | reference: DMSO over compound-treated, higher = stronger cysteine blockade | isoTOP-ABPP competition ratio | 3
CC(C)[C@@H]1NC(=O)[C@H](Cc2ccccc2)NC(=O)CSC[C@@H](C(N)=O)NC(=O)[C@H](CCC(=O)O)NC(=O)[C@H](CO)NC(=O)[C@H](Cc2c[nH]c3cccc(Cl)c23)NC(=O)[C@H](C2CCCCC2)NC(=O)[C@H](C(C)C)NC(=O)[C@H](Cc2ccc(O)cc2)NC(=O)[C@H](CC(=O)O)NC(=O)[C@H](Cc2c[nH]c3ccccc23)NC(=O)[C@H](Cc2ccc(N)nc2)NC(=O)[C@H](Cc2c[nH]c3ccc(Cl)cc23)NC(=O)[C@H](CCC(=O)O)NC1=O | Interleukin-1 receptor-like 2 (IL1RL2, Homo sapiens, UniProt Q9HB29) | reporter gene (SEAP), inhibitor, HEK-Blue IL-36R reporter | HEK-Blue IL-36R cells | 0.046 µM, 6 h, added: IL-36γ 3 ng/mL | – | remaining activity | 104%
COC1CN([C@H]2CC[C@H]([C@@]3(C)Oc4c(Cl)cc(C(=O)NCc5c(SC)cc(C)[nH]c5=O)c(C)c4O3)CC2)C1 | – | RNA-seq, item: LETM2 mouse homolog | mouse, HT-1376 xenograft, whole blood | dose not given | reference: vehicle | log2 fold change | 0.105

A few entries again:
Structure (SMILES) | tested on | test | system | setting | how to read | quantity | result
CCCCCC(O)/C=C/C=O (stereo not shown) | Actin-related protein 2 (Homo sapiens, UniProt P61160) | acylphosphate-ATP probe SILAC-ABPP, item: ACTR2 | ZAK-transfected HEK293T | 100 µM, added: acylphosphate-ATP probe | reference: DMSO over compound-treated | probe labelling ratio | 0.63
CC(C)[C@@H]1NC(=O)[C@H](Cc2ccccc2)NC(=O)CSC[C@@H](C(N)=O)NC(=O)[C@H](CCC(=O)O)NC(=O)[C@H](CO)NC(=O)[C@H](Cc2c[nH]c3cccc(Cl)c23)NC(=O)[C@H](C2CCCCC2)NC(=O)[C@H](C(C)C)NC(=O)[C@H](Cc2ccc(O)cc2)NC(=O)[C@H](CC(=O)O)NC(=O)[C@H](Cc2c[nH]c3ccccc23)NC(=O)[C@H](Cc2ccc(N)nc2)NC(=O)[C@H](Cc2c[nH]c3ccc(Cl)cc23)NC(=O)[C@H](CCC(=O)O)NC1=O | Interleukin-1 receptor-like 2 (IL1RL2, Homo sapiens, UniProt Q9HB29) | reporter gene (SEAP), inhibitor, HEK-Blue IL-36R reporter | HEK-Blue IL-36R cells | 0.046 µM, 6 h, added: IL-36γ 3 ng/mL | – | remaining activity | 104%
O=C(O)c1ccc(Nc2c(-c3ccccc3)nc3ccc(CON=Cc4cc(-c5ccc(F)cc5)on4)cn23)cc1 | TDP1 | enzyme activity, inhibitor | – | 100 µM, unpurified compound | – | inhibition | -5.3%
Cc1ccc2c(c1Br)C(O)(CC(=O)c1ccc(F)cc1)C(=O)N2 (stereo not shown) | Uncharacterized protein | inhibitor, coupled colorimetric | Trypanosoma brucei | – | – | Hill slope | -0.43
CC[C@H](C)[C@H](NC(=O)[C@H](CCCC(=O)O)NC(=O)[C@H](CC(=O)O)NC(C)=O)C(=O)N[C@@H](CC(=O)O)C(=O)COC(=O)c1c(C)cccc1C | CASP6 | enzyme activity, inhibitor | – | – | – | kinact/KI | 160000 M⁻¹ s⁻¹
